{"data": "Assay results collected from several papers", "note": "A part holds a random share of what one study measured. Positions count from the first letter of the parent shown."}
{"data": "Study 1", "target": "PABPC1L2, full length, GST fusion (mouse, UniProt A0ABA7IW68)", "technique": "RNAcompete", "molecule type": "RNA", "matrix": "in vitro", "tested at": "20 nM", "notes": "7-mer, probes averaged, single round", "relative to": "mean of 7-mers", "direction": "higher = stronger binding", "Construct (chain)": "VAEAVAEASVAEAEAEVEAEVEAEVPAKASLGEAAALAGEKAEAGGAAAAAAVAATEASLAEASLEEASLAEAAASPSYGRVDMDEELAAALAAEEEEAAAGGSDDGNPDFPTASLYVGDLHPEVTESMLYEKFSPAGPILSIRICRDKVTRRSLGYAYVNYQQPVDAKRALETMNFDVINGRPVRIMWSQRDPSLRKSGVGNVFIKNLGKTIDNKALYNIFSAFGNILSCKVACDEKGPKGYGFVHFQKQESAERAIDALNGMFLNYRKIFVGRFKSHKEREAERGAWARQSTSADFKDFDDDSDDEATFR"}
{"Sequence": "CCAUGAU", "7-mer Z-score": -0.146}
{"Sequence": "CCGGCGG", "7-mer Z-score": -0.204}
{"Sequence": "AUAGGCA", "7-mer Z-score": 0.311}
{"Sequence": "UGCUAAG", "7-mer Z-score": -0.242}
{"Sequence": "GUAUCCG", "7-mer Z-score": -0.264}
{"Sequence": "GACCGCA", "7-mer Z-score": -0.0935}
{"Sequence": "UUUAACU", "7-mer Z-score": -0.277}
{"Sequence": "GGGGCCC", "7-mer Z-score": -0.191}
{"Sequence": "UGGACUU", "7-mer Z-score": -0.184}
{"Sequence": "UCUGCAU", "7-mer Z-score": -0.224}
{"Sequence": "GCUGGAA", "7-mer Z-score": 0.271}
{"Sequence": "CUUAGGG", "7-mer Z-score": -0.079}
{"Sequence": "AUGCCUG", "7-mer Z-score": -0.0573}
{"Sequence": "AAUAGCG", "7-mer Z-score": 0.494}
{"Sequence": "GGUCGGC", "7-mer Z-score": 0.0207}
{"Sequence": "GUGGAGA", "7-mer Z-score": 0.0968}
{"Sequence": "UGUUCGC", "7-mer Z-score": -0.483}
{"Sequence": "GAUUCGC", "7-mer Z-score": -0.421}
{"Sequence": "UCAUUUA", "7-mer Z-score": 0.166}
{"Sequence": "CUCAGUU", "7-mer Z-score": -0.398}
{"Sequence": "UUACAAC", "7-mer Z-score": -0.101}
{"Sequence": "GGUAAGC", "7-mer Z-score": -0.0192}
{"data": "Study 2", "target": "Hepatocyte nuclear factor 3-alpha (Foxa1, Mus musculus, UniProt P35582, residues 1-468, full length assumed)", "technique": "EMSA with sequencing", "molecule type": "double-stranded DNA, one strand shown", "matrix": "in vitro", "tested at": "10 and 20 nM", "notes": "whole designed probe, mean of two concentrations, ends assumed", "relative to": "negative control set to 0", "direction": "higher = stronger binding", "shared flanks, not repeated": "GTGAGCGGTGCCCATTGATGGGGAAC … TTTCACTGGGATCGTGGGGAC", "Target sequence (chain)": "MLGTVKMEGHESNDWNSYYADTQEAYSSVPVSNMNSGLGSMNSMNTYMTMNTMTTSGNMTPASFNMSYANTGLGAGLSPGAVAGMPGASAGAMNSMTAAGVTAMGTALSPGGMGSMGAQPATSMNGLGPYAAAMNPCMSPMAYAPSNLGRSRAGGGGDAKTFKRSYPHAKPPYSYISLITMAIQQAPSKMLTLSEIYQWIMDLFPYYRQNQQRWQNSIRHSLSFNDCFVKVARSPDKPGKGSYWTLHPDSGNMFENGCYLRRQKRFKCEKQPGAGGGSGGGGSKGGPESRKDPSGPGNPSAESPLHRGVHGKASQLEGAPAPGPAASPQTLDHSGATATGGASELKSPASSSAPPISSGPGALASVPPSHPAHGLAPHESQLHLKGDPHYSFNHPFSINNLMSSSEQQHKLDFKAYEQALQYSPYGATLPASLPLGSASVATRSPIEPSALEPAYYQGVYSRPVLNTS"}
{"Sequence": "CTCTCTTCTCCCACCATCAACTCTAAACAAATCTCAGTGTCAGTTGAAGGATTTCATGTCCTGAATCTGCAAACCAGGATCATCTGGCAGCACTGTTTACCTAAAGTGATTAAAACCCATGAATCATGATGTTTATACAAGTTTTTCTTCCTTGTAAAAAGGCAAGAGGCAACGCTATAGACCACAGACGGAA", "normalised bound fraction [ratio]": 0.319}
{"Sequence": "TAAAATGGTGTTTAATTTTAGCATTTAACAACTCATTTGTTGCTTTCTTATGACATACAAAAGAAAGAGAAGGTTACTGATTCACACAAACATGTTTACATTGGAATTCCAACGTAATTTCTTTTCTAGAATAGCCAAAATAATACATGCCATTGACACAAAGAACAATAAACCTATATTTTATATAGGTGCA", "normalised bound fraction [ratio]": 0.3}
{"Sequence": "AGGTTAAAGATTACATTCTAACCACACACCAGTCATACTCTGCTCCGGGAAAAACCTTAAGTACTTGTGAGCATCTGTCCCTAACTTAGATGTTGTTTACTTTCAGTTTACATACAGTGCAAACACCAGGGTGTACATGATTTTCAAGTCAAAAAAGATAAGGACTAATCCAGAAAGGAGAAGGAATTCTGTT", "normalised bound fraction [ratio]": 0.372}
{"Sequence": "AGGGAGTAGTGTTGACCCACCCCCACTCAACACTCAGTCCAGCCAGGCCAGCCCAGGAGGAAGTCATGTAGCCACGAATCTGCCCTGAATCACAGATGACTTTTCCTTAGCTTAGATTACAAAATTCATGACCACAGATAAATGGTACAACTCCTGGAATCAGGTTTTGTAGGGCTTGAAATGCATACAATTT", "normalised bound fraction [ratio]": -0.0287}
{"Sequence": "CCACATGACTCATAAATAGATGGAAAGACACTCAACCACTTCAGTAGCCAAGCAAATTCAAACACACATCACAATGAGGTATTACTATACTCTGCAATCTCCAAGTATCGGCAAGGATGTCGAGCGACAGGGAGTCCCGTGCACTGCCAGGGGAGGTGTGAATCGGCACATCCAGGTGGGAAAGCAAAGTGGC", "normalised bound fraction [ratio]": -0.0187}
{"data": "Study 3", "target": "CCND1, cyclin fold, Cln2 fusion (human)", "technique": "yeast growth competition, sequencing", "matrix": "yeast", "notes": "strong parent motif", "relative to": "not given", "direction": "higher = stronger binding", "starting sequence": "SCAPER docking peptide (human); SNARRSLNFGGST; partner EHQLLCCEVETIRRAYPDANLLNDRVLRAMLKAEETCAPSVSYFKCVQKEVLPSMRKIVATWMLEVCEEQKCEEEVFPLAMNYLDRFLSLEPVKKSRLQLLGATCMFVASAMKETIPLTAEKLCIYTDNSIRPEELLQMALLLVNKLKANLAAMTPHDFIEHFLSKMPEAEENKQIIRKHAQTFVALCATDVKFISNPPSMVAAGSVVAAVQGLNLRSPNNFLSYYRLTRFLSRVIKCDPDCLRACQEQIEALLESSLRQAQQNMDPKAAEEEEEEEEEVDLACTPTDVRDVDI"}
{"Change": "S12W", "normalised enrichment score": 0.233}
{"Change": "S12E", "normalised enrichment score": 1.94}
{"Change": "A3L", "normalised enrichment score": -0.314}
{"Change": "R5A", "normalised enrichment score": -0.154}
{"Change": "S1M", "normalised enrichment score": 0.466}
{"Change": "N2E", "normalised enrichment score": 0.663}
{"Change": "L7A", "normalised enrichment score": 1.05}
{"Change": "F9H", "normalised enrichment score": -0.159}
{"Change": "F9P", "normalised enrichment score": -0.00375}
{"Change": "L7K", "normalised enrichment score": 0.239}
{"Change": "G10A", "normalised enrichment score": 0.966}
{"Change": "A3Y", "normalised enrichment score": 0.0367}
{"Change": "G11L", "normalised enrichment score": 0.177}
{"Change": "G11T", "normalised enrichment score": 1.42}
{"Change": "S12G", "normalised enrichment score": 1.06}
{"Change": "S12A", "normalised enrichment score": 1.13}
{"Change": "R5C", "normalised enrichment score": 0.305}
{"Change": "N2I", "normalised enrichment score": 0.767}
{"Change": "G10Y", "normalised enrichment score": 0.778}
{"Change": "G10S", "normalised enrichment score": 0.424}
{"Change": "S1E", "normalised enrichment score": -0.134}
{"Change": "S1N", "normalised enrichment score": 0.591}
{"Change": "R4E", "normalised enrichment score": 0.152}
{"Change": "R5A L7A", "normalised enrichment score": -0.0227}
{"data": "Other studies, line by line"}
{"Molecule": "PhoQ, residues 284 288 289 292 302 303 SSLVEF", "target": "PhoP, residues 12 14 15 18 19 HEGLL (Escherichia coli, UniProt P23836)", "test": "Sort-seq, measured: YFP reporter", "system": "E. coli", "setting": "PhoQ-PhoP variant library, together with: 10 µM Mg2+", "how to read": "relative to: high Mg2+ state, higher = stronger signaling", "endpoint": "fold induction", "value": 0.726}
{"note": "Repeated from above (study 1):"}
{"Sequence": "GUAUCCG", "7-mer Z-score": -0.264}
{"Sequence": "AAUAGCG", "7-mer Z-score": 0.494}
{"Sequence": "UCUGCAU", "7-mer Z-score": -0.224}
{"Sequence": "UUUAACU", "7-mer Z-score": -0.277}
{"Sequence": "GGGGCCC", "7-mer Z-score": -0.191}
{"Sequence": "CUCAGUU", "7-mer Z-score": -0.398}
{"Sequence": "AUAGGCA", "7-mer Z-score": 0.311}
